# Results collected from several papers.
# The chains behind the UniProt entries cited, without tags or fusion partners. Residues count along the entry.
# UniProt P9WGR1, whole entry: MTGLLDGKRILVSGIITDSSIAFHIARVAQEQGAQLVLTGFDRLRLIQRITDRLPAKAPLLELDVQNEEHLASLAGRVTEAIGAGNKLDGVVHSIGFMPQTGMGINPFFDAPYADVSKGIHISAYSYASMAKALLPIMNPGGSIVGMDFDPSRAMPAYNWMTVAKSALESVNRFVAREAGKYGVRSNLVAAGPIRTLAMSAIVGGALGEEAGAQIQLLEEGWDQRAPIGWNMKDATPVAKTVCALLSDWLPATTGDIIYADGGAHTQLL
# UniProt P22303, whole entry, looked up: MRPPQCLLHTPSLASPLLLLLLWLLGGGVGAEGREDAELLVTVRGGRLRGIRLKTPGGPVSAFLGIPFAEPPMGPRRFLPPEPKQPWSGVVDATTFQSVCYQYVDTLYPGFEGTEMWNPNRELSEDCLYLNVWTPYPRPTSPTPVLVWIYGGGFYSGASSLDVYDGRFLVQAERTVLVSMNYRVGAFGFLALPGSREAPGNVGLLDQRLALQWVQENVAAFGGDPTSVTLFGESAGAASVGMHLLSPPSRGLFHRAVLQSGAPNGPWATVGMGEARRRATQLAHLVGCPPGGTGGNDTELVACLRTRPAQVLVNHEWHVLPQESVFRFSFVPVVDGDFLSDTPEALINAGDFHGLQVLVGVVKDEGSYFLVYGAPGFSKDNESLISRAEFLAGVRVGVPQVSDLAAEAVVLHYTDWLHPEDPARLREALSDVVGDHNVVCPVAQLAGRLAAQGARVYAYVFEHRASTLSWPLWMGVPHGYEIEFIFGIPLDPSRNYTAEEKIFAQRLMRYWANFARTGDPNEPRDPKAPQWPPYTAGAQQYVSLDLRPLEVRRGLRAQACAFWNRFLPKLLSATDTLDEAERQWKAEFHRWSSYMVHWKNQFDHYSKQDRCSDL
# UniProt P06241, whole entry, looked up: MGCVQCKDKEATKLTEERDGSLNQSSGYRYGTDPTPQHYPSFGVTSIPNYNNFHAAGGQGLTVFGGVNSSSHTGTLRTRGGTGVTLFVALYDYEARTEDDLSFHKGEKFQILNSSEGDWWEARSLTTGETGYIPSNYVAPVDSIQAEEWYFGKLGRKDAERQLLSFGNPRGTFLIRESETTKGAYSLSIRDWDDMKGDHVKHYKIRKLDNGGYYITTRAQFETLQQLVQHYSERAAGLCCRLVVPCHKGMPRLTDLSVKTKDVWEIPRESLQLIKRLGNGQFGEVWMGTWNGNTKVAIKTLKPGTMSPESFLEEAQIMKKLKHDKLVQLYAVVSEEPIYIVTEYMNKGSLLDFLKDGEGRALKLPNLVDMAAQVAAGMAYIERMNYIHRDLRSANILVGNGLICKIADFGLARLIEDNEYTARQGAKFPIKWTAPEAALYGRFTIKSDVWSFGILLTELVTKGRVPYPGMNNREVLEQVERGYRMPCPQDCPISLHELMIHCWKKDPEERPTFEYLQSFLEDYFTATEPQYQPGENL
# UniProt P06241, whole entry M250P/L253P/T254P, looked up: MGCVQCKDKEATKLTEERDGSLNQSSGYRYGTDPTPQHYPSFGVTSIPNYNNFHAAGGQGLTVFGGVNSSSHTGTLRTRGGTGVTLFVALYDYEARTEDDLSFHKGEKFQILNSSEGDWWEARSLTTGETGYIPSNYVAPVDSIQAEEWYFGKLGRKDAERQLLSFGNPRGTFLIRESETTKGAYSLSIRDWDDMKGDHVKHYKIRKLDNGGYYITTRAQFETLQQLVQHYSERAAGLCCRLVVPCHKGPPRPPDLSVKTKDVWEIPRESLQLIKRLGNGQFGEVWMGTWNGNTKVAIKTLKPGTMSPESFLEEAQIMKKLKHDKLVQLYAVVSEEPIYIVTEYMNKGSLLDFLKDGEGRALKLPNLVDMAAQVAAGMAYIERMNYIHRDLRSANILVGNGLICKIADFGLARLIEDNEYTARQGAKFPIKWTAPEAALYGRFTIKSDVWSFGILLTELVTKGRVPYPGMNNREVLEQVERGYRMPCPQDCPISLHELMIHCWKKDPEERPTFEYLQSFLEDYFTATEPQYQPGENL
# UniProt P0C0J0, 146-398 limits assumed: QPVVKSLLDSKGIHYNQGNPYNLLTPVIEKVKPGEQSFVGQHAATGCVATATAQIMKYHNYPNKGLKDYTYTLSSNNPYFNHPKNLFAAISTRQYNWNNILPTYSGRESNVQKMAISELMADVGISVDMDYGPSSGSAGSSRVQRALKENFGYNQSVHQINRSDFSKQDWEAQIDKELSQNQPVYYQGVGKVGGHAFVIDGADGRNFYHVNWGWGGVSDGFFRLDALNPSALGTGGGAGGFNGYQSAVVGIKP
# UniProt P35372, whole entry: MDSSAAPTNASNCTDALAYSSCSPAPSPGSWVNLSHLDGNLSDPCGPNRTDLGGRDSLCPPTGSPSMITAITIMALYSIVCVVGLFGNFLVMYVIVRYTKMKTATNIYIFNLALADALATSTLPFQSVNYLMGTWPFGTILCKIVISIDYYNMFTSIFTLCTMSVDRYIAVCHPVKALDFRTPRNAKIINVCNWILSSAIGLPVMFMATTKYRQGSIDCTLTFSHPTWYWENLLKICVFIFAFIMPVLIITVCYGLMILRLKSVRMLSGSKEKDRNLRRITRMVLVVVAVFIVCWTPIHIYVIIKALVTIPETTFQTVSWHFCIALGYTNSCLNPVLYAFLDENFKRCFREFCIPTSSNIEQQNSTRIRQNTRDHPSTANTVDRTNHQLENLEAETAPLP
# UniProt P9WNX1, whole entry: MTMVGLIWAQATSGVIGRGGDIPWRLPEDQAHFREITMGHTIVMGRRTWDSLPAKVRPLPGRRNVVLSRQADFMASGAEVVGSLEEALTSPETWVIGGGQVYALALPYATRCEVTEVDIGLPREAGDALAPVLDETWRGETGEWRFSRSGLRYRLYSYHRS
# UniProt P28223, whole entry: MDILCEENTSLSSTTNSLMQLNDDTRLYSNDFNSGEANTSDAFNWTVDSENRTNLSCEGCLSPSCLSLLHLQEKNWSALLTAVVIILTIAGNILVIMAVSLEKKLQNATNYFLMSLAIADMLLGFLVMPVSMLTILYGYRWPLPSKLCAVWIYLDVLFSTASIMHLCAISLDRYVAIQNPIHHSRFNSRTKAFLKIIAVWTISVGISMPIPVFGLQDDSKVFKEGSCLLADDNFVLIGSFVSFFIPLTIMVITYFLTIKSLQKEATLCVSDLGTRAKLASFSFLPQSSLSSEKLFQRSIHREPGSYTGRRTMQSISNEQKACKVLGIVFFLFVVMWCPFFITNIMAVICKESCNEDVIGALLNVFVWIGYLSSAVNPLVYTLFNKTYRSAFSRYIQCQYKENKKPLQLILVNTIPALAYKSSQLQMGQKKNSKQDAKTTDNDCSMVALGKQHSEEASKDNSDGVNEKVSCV
# Compare with care: the assays were run in different laboratories. Numbers after ± are the reported error.
# inhA: Enoyl-[acyl-carrier-protein] reductase [NADH] (inhA, Mycobacterium tuberculosis, UniProt P9WGR1)
# ACHE: Acetylcholinesterase (ACHE, Homo sapiens, UniProt P22303)
SMILES,target,assay,system,conditions,Ki [nM]
N#Cc1ccccc1Oc1ccc(Cn2cc(C3CCCC3)nn2)cc1O,inhA,"enzyme activity, slow-onset inhibitor",,"20 °C, initial EI complex",83000 ± 17000
Nc1ncnc2c1c(-c1cnc3[nH]ccc3c1)nn2C1CCCC1,"Tyrosine-protein kinase Fyn (FYN, Homo sapiens, UniProt P06241, G531I/P530I/Q529E)",inhibitor,,,59
N#C[C@H](Cc1cccc(N=S(=O)(F)N2CCC(C(N)=O)CC2)c1)NC(=O)OCc1ccccc1 (some centres unmarked),"Streptopain (Streptococcus pyogenes, UniProt P0C0J0)","enzyme activity, inhibitor",,,18 ± 1
CN1CC[C@]23c4c5ccc(O)c4O[C@H]2c2ncc(-c4ccc(Cl)cc4)cc2C[C@@]3(OCCCc2ccccc2)[C@H]1C5,"Mu-type opioid receptor (OPRM1, Homo sapiens, UniProt P35372)","binding, [3H]diprenorphine displacement",CHO membranes,,19.7 ± 0.9
COC(=O)CC[C@H](NC(=O)c1ccc(N(C)Cc2cnc3nc(N)nc(N)c3n2)cc1)C(=O)OC,"Dihydrofolate reductase (folA, Mycobacterium tuberculosis, UniProt P9WNX1)",,,,193 ± 15.2
C#CCOCCC(=O)N[C@H](Cc1ccccc1)C(=O)N[C@@H](Cc1ccccc1)C(=O)N[C@@H](CCCNC(N)=O)C(=O)CCl,"Replicase polyprotein 1ab, main protease (rep, Severe acute respiratory syndrome coronavirus 2, UniProt P0DTD1)","enzyme activity, inhibitor",,,200 ± 50
CC(C)n1nc(-c2ccc3c(c2)OCO3)c2c(N)ncnc21,"Tyrosine-protein kinase Fyn (FYN, Homo sapiens, UniProt P06241, L253P/M250P/T254P)",inhibitor,,,120
N#Cc1ccccc1Oc1ccc(Cn2cc(C3CC3)nn2)cc1O,inhA,"enzyme activity, slow-onset inhibitor",,"20 °C, initial EI complex",99000 ± 16000
CC(C)(C)c1cc[n+](CCCCCCCC[n+]2ccc(C(C)(C)C)cc2)cc1,ACHE,"enzyme activity, inhibitor",,,90
Cc1ccccc1Oc1ccc(Cn2cc(C3CC3)nn2)cc1O,inhA,"enzyme activity, slow-onset inhibitor",,"20 °C, final EI* complex",70 ± 14
CNC(C)C(=O)c1ccc(Br)cc1 (racemic),"5-hydroxytryptamine receptor 2A (HTR2A, Homo sapiens, UniProt P28223)",,,added: [3H]ketanserin,6300
CCN(CC)Cc1cc(N)ccc1O,ACHE,"enzyme activity, competitive inhibitor",,added: acetylthiocholine,6300 ± 900
N#Cc1ccccc1Oc1ccc(Cn2cc(C3CCCCC3)nn2)cc1O,inhA,"enzyme activity, slow-onset inhibitor",,"20 °C, initial EI complex",6300 ± 1300
CC(C)n1nc(-c2ccc3cc(OCc4cccc(Cl)c4)ccc3c2)c2c(N)ncnc21,"Tyrosine-protein kinase Fyn (FYN, Homo sapiens, UniProt P06241, G534I/P533E/Q532E)",inhibitor,,,360
